Measured values gathered from unrelated publications.
Each numbered part is a random draw from the data of one study; scales do not carry over between parts.

Block 1 — method: RNA Bind-n-Seq; form: RNA; medium: in vitro; concentration: 365 nM; reference: no-protein control; reading: higher = stronger binding
Target: RNA binding protein fox-1 homolog 2, RRM domain, GST-SBP tag (RBFOX2, Homo sapiens, UniProt O43251-10, residues 100-194)
Setting: natural RNA segment, single round, ends assumed
Construct (chain): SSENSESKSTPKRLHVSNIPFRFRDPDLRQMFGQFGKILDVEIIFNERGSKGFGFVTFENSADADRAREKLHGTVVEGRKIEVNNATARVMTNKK
Strand	RBNS enrichment (R)
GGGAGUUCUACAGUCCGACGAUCUCUACUGGCGUUUUAAAACUGUUAAAUGUGCACAUUUUGGGUAUAGCUAUUUUCACUUGUAUGUAUAUAUUGUAUAUACAUAUAAGUGUCUGUAUGUGUGUAUAGAUGGAUGGAAUUCUCGGGUGCCAA	0.314
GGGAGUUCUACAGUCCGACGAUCAACCUGCACAUGGAGGACACAUCCAAUACCAGUUCUCCACAUUCCAACCUCUCUCUCUCUCUCUCACUGGGUGGAUAAAUUUGUGAGCCAACCAAGAAGGCUCAGCUGUCUGGAAUUCUCGGGUGCCAA	0.821
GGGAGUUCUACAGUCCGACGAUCACUUUUUUAUACACCUGUUCAUUUCUACUUAAAUUAUGGCACAGAUUGAUGCGCACCAGUCUUGAGGAAACGAUCUCCCUAUUCCCUUACCCUGUUACUCAGCCACGCCGUGGAAUUCUCGGGUGCCAA	0.811
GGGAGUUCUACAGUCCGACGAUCCUGAUUUGUUCUCUGGAUAAAUUAGCAUAGUUAUUUUUUUAUUCACAUUUACAUUUCUAAGUAGUUGUAUAGUAGAAGCAGGAAGCUCUUAUUGCUUAUUUGGUCGUAAUUGGAAUUCUCGGGUGCCAA	1.03
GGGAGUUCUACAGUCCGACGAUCCUGGCCAGCUUCAGCCUACAGCUUUAAAUUCUGUCUGCUCCUAAAUGGGUCCAAAGCUCAGUACUGGGGAGCCUGGGGUCCCCACUUGAAUGUGCAGCAGGAGGUCCUUUUGGAAUUCUCGGGUGCCAA	0.449
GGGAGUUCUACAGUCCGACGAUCCCAGUGUCUGGACUGCUAUAUUGGGUUGGGGGCUGGUUCUGGAACUCAGUCUGCGCCUCUAUAGGUUCUUGUAGAGCCUUGGUUGUUUCUGGCCUCUGCCUGGGACAGUAUGGAAUUCUCGGGUGCCAA	1.09
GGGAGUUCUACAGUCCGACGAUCUUCAUGCCGGUAGAGGCUCAUUAAGUGAGGUCCUGGGCACCCCCCAAACAGGAAGUGUUUUCAGGCCCUUACAUGCUUAUCCUUAAGGUGAGUAGGUAUCUCAGCAGCACUGGAAUUCUCGGGUGCCAA	0.226
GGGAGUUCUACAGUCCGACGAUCUUAACUGGAAGAAAUUGUAUUGCUGCGUAGAAUCUGAACACACUGAGGCCACCUAGCAAGGUAGUAACUAGUCUAACCUGUGCUAACAUUAGGGCACAACCUGUUGGAUAUGGAAUUCUCGGGUGCCAA	0.433

Block 2 — method: RNA Bind-n-Seq; form: RNA; medium: in vitro; concentration: not given; reference: input RNA pool; reading: higher = stronger binding
Target: RING finger protein unkempt homolog, zinc fingers 1-6, GST-SBP tag (UNK, Homo sapiens, UniProt Q9C0B0, residues 30-357)
Chain of UniProt Q9C0B0 (30-357, looked up): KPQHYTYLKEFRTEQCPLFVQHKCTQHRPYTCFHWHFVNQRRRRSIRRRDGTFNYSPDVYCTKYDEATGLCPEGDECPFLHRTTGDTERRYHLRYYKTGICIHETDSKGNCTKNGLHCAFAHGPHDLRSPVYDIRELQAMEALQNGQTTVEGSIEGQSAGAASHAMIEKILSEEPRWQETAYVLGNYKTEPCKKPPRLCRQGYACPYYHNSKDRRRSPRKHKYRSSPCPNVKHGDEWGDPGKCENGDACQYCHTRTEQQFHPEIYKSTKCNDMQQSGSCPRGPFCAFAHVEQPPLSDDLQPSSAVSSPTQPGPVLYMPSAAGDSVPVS
Setting: RNA with constant flanks, human and mouse sites, ends assumed
Strand	bound/input enrichment
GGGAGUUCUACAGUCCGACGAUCGCUCCACCUGCCCCAGCUCUGCCCGGUGUGGAAGAAGCAAGUGUCCUAAGCACCUAACUCUAGUUUUGUUACAAGUAUAACUUAGGAGAAAAAAUUGGUAGAAAUAAUACAGUAUGUUGCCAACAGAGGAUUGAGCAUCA	5.01 ratio
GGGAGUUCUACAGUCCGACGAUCUGUAAACUCAUGUACAGUUUUUUUGGGGGGGAGGCAAGGGGAGGGUUAGCAACUUCAAAUAGAAUCAUUUGUUGUAUUCCUCAAAUGGUAAACAGUCACCACUCAGCUAGAGACUGUCGUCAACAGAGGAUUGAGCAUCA	15.5 ratio
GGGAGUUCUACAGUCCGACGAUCUUCUAAAGAUAUCUAGCAAAUCUCCAGCAGAGAUCUAGGACAGUGCCCAGGAAAGCAAUGGUAUCUGUUGGUAGGUACAGGACUGUAUAUAGGACUCUAUUCACUUAGCUGUAAAUGAUGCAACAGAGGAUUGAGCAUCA	2.6 ratio
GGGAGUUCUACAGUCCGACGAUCCCUUUUACAACAGAAUCUGCUUUUCAGAGAGAUGCCCUUUGCUUCUCAGAUGUAGUGCACCUUACGCUUAUUUUUCAACAGUGAAAAUGAGUCAUACAGAGGUUAAAUUAAAAAUACCUUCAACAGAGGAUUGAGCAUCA	0.348 ratio
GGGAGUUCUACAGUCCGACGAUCUGGCUUAUUUUAGUUACAGGCUACCUCUUAGCUGAUGAUACUCAGGGAGAGACUCCGCUAAUACCUCCAGAAAUAAUGGAAUAUUCCAUUAAGCAUUCAUCUGAAGUUGACAUUAAUACACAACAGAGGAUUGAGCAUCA	0.328 ratio
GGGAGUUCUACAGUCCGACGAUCUACGUGUGCCAGAGACUGGGUGUCAGCCAUAUCAUCACCGAGCCCAAAGAAGAGGCCAUUAGCACAAAUGAAGUCAUAAACCAGUUACUGCACCAUGUUGGCGCCAUGUGCAUUCACCAGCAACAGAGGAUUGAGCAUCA	0.467 ratio
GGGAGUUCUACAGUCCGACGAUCAAAUAAAUAUUUAAUUUUUUUAAUUGCUCUUGUAUAAUCAGAUGCCCUUUUUAGUAUUAUUUUAGAAGCAUUUGGGAGGAUUUUGCCUAAAAUACAAUUUAUUGGGGGAGACUAGAUUUUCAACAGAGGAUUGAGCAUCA	11.5 ratio
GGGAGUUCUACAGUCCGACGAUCCGGCCCAAGCAGGAGCUGCAGCGAGCCGGGUACCUGGACUCAGCGGUAGCAACCUCGCCCCUUGCAACAAAGGCAGACUGAGCGCCAGAGAGGACGUUUCCAACUCAAAAAUGCAGGCUCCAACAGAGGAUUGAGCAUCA	0.113 ratio

Block 3 — method: protein binding microarray; form: double-stranded DNA, one strand shown; medium: in vitro; concentration: not given; reference: not given; reading: higher = stronger binding
Target: Histone acetyltransferase KAT6A, winged helix 2, GST fusion (KAT6A, Homo sapiens, UniProt Q92794, residues 85-181)
Setting: 8-mer, flanks averaged, mean of 2 arrays, mostly near background
Residues (chain): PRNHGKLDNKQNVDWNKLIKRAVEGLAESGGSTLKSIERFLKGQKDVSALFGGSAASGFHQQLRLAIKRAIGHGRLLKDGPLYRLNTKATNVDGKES
Strand	E-score
ATCGACGG	-0.167
AGCTGTAG	-0.046
GCCAACAA	0.0452
ACCAAGCC	-0.0436
TGAAGGAA	-0.0427
GGCATAAC	0.0123
CTTGCGCA	-0.0341
AGGACCGA	0.00928
ATCCCAAG	0.0605
CTTCAGTC	0.124
ACATTGGT	-0.0603
CTCCGAGA	0.0867
CAGGGTAG	-4.5e-05
GGGTCACC	-0.0368
ACCAGCAC	-0.0538
ACCTGGCT	-0.0911
CTAAGCTC	0.0679
AGTAACGG	0.0195
GACGAGGC	0.0307
CAAGGTCA	0.0046
TCACAAAA	0.0602
ATTCTTTC	0.0929
AACAGAAT	-0.0929
GTCCAGCA	0.00645

Block 4 — method: RNA Bind-n-Seq; form: RNA; medium: in vitro; concentration: 1 µM; setting: whole 134-nt RNA, ends assumed; together with: 150 mM KCl; reference: input library; reading: higher = stronger binding
Target: Ras GTPase-activating protein-binding protein 1, C-terminal RGG region (G3BP1, Homo sapiens, UniProt Q13283)
Chain of UniProt Q13283 (whole entry, looked up): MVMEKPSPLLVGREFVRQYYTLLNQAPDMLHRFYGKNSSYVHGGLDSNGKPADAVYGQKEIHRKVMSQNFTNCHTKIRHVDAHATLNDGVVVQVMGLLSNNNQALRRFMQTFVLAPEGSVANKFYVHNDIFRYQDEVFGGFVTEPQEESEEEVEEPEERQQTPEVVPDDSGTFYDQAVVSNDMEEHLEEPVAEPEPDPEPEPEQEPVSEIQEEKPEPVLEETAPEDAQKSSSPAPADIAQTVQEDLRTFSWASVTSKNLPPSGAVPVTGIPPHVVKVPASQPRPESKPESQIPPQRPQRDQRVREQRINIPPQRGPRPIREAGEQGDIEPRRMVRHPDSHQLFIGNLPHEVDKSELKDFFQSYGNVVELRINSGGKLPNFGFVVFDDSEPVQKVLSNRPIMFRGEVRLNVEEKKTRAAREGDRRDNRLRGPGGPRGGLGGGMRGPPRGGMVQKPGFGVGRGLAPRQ
Strand	log2 enrichment
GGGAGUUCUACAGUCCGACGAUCCUCAAGUCCUGUGCUACACAUCGUAUGUACCGAAUCGGUUUUUUUGGAGGAGGAAAGUAUUAUGUUACGCCGUUCGGAUCUGCACUUCCAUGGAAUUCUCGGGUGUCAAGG	-1.15
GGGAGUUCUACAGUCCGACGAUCGCAGGAAGUAAAAACAAAUGGAAAUGCUUCGGAUAGUGGCAGGGGUGGGGGUUGCUAAGGAAAGGGUGGGAUGGGAGUGGCUAAAGAGUUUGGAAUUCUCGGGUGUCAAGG	1.59
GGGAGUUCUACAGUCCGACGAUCCUGUGCUACACAUCGUAUGUACCGAAUCGGUUUUUUUGGGUUUUUUUGGGUUUUUUUGGGGAAAGUAUUAUGUUACGCCGUUCGGAUCUGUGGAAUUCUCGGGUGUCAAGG	-1.22
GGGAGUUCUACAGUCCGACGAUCCCUCAAGUCCUGUGCUACACAUCGUAUGUACCGAAUCGGUGGAAAAAGGUGGAAAGUAUUAUGUUACGCCGUUCGGAUCUGCACUUCCAGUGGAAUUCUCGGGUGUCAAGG	-0.743
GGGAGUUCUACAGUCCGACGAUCCUGUGCUACACAUCGUAUGUACCGAAUCGGAAAAAAAGGGGAAAAAAAGGAAAAAAAGGGGAAAGUAUUAUGUUACGCCGUUCGGAUCUGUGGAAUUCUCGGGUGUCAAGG	-1.4
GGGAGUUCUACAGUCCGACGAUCUUAGAUGAGUGACCGAGGAGGUGGCGUUCCUUUGAGGAAAAUUGACAGACUUUUCAACUACAUGUAUUCAACUGCACCAAGACCUCGUGUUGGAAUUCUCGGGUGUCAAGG	-1.46
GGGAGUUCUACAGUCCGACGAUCUCAAGUCCUGUGCUACACAUCGUAUGUACCGAAUCGGAAAGGUGGAAAAAAAGGAAAGUAUUAUGUUACGCCGUUCGGAUCUGCACUUCCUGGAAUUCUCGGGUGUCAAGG	-1.76
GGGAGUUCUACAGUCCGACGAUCUCCUGUGCUACACAUCGUAUGUACCGAAUCGGGGAAAAAGGAAAAAGGGGAAAAAGGGGAAAGUAUUAUGUUACGCCGUUCGGAUCUGCAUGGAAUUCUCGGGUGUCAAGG	-0.801
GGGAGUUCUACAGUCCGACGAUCGGUAGCAAGAGCUCCAGAGAGAAGUCGAGGAAGAGAGAGACGGGGUCAGAGAGAGCGCGCGGGCGUGCGAGCAGCGAAAGCGACAGGGGCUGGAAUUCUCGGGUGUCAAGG	-0.417

Repeated from above (block 3):
Strand	E-score
TGAAGGAA	-0.0427
GGCATAAC	0.0123
CTTGCGCA	-0.0341
AGGACCGA	0.00928
ATCCCAAG	0.0605
CTTCAGTC	0.124
ACATTGGT	-0.0603
